Results from different studies.
Compare with care: the assays were run in different laboratories. Values joined by “and” are separate records of one study, mostly repeats; a detail may differ. ± gives the spread as reported.
YES1 SH2 domain: Tyrosine-protein kinase Yes, SH2 domain (YES1, Homo sapiens, UniProt P07947)
Chain of UniProt Q8LBL5 (whole entry, unmodified, looked up): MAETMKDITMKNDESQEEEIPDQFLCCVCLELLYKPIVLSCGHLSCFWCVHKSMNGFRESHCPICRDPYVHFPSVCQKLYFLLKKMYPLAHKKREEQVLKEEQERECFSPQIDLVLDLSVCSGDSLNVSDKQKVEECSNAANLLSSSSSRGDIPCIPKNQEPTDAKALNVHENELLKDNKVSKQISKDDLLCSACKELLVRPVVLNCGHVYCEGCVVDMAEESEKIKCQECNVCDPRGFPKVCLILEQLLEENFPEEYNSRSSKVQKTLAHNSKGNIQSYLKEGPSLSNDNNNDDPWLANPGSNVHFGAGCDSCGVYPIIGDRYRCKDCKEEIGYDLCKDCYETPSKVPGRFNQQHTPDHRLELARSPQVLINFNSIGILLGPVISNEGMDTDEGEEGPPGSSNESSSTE
Chain of UniProt P07947 (whole entry, looked up): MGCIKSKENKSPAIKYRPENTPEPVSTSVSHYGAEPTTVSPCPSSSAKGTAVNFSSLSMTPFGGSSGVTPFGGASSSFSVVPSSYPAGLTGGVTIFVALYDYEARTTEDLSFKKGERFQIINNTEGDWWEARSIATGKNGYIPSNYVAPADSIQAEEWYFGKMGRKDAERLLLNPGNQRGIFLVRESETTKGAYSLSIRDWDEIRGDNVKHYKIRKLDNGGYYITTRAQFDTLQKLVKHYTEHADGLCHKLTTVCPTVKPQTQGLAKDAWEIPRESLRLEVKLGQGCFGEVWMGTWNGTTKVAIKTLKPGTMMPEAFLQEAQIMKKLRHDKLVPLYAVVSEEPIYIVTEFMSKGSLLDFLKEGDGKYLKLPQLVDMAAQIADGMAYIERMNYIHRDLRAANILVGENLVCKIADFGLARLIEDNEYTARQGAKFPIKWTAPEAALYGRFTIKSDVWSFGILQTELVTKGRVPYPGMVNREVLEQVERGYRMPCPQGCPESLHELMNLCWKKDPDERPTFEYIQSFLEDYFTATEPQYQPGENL
Chain of UniProt Q8N4A0 (whole entry, unmodified, looked up): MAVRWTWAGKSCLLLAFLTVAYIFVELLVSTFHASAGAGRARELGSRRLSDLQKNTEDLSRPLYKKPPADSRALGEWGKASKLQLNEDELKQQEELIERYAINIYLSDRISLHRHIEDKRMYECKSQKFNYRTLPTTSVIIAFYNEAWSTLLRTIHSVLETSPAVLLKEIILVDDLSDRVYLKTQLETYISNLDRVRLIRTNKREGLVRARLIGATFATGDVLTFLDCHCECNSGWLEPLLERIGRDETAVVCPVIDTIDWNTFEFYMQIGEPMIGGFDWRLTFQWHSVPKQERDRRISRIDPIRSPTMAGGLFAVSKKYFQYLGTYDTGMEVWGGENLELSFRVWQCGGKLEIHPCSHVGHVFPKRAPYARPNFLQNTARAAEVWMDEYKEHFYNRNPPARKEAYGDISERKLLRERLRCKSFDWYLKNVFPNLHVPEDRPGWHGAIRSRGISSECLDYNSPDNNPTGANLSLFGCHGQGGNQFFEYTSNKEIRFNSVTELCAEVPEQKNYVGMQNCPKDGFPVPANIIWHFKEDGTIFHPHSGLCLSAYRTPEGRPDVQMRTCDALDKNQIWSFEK
Chain of UniProt Q9LIR4 (whole entry, looked up): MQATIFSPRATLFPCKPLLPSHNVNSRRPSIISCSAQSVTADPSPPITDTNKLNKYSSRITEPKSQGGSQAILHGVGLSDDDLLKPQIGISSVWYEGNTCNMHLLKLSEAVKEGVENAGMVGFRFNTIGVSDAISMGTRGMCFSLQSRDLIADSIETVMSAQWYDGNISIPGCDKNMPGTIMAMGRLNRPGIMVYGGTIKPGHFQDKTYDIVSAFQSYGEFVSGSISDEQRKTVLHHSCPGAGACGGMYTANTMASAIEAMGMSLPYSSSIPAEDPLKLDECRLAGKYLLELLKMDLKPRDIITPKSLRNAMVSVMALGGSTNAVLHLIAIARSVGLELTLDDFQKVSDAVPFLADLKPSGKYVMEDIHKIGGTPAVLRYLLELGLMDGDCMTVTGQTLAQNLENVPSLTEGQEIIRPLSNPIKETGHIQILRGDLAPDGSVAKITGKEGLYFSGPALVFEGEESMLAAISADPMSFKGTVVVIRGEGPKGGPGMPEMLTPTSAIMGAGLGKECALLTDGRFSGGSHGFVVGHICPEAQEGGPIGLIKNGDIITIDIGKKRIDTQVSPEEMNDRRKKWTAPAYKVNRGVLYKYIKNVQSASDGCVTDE
Chain of UniProt P03023 (whole entry, unmodified, looked up): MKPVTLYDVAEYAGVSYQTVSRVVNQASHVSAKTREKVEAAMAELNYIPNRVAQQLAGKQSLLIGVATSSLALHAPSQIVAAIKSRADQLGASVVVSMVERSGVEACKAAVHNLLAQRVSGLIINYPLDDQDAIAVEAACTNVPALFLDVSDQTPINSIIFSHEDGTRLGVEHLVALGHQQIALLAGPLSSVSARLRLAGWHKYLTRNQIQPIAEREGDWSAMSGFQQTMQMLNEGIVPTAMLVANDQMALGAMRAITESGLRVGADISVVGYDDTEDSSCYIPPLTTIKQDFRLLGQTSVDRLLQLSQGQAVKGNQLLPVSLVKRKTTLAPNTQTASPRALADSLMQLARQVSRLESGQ
Chain of UniProt Q13094 (whole entry, looked up): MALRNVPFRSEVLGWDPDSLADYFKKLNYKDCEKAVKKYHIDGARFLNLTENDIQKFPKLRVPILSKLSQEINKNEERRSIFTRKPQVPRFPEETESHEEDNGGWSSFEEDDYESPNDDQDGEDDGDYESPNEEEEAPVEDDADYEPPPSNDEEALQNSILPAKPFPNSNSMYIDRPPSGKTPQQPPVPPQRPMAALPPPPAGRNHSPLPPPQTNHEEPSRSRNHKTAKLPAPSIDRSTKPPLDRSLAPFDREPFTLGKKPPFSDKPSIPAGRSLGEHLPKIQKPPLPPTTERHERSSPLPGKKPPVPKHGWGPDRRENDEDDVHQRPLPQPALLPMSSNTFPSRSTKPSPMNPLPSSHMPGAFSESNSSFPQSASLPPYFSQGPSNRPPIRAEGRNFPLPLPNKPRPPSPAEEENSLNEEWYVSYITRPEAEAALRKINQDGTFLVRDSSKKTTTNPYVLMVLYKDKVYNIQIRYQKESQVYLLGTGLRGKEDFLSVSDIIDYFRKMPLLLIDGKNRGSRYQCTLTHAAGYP
Chain of UniProt P16885 (whole entry, looked up): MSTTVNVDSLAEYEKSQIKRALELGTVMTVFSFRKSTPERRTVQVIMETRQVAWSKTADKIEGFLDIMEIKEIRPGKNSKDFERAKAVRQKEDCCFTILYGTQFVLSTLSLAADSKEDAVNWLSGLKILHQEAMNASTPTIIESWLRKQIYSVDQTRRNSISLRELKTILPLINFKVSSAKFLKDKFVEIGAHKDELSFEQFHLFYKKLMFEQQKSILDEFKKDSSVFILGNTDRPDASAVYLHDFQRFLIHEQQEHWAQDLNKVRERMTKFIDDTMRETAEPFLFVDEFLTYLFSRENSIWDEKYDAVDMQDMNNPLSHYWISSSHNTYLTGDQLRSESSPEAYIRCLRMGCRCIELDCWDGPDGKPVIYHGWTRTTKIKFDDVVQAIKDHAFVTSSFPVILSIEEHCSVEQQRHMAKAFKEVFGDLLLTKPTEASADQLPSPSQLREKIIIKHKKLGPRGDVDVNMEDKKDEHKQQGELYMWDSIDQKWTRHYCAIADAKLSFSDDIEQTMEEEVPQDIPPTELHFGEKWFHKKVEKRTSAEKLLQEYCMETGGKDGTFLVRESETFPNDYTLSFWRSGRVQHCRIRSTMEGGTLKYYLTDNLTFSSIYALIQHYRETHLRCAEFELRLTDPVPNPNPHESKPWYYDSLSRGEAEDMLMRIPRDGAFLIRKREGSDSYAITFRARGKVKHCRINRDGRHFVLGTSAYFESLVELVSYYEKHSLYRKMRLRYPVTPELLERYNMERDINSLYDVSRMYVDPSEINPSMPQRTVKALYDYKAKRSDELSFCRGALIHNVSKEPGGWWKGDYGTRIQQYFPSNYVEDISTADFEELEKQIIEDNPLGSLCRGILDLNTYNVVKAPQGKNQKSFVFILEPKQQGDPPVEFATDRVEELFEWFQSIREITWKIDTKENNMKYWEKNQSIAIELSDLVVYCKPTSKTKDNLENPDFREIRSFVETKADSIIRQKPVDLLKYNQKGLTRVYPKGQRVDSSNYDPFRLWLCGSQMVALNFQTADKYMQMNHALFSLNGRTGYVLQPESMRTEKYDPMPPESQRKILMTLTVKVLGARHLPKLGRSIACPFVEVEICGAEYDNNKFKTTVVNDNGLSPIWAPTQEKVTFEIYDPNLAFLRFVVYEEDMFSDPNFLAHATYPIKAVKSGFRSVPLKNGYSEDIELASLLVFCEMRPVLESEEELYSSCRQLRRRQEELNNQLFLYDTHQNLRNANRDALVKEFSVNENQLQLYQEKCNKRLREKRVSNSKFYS
Chain of UniProt P48730 (whole entry, looked up): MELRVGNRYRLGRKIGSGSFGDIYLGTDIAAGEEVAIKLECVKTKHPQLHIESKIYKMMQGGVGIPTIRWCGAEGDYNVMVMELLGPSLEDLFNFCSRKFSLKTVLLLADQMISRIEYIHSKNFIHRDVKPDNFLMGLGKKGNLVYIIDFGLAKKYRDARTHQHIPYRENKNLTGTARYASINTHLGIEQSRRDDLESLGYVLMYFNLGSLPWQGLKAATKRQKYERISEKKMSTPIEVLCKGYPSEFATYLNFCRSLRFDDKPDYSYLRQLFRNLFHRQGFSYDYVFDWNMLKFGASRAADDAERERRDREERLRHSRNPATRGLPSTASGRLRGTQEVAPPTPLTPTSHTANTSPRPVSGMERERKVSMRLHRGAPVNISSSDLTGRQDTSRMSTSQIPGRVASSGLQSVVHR
Chain of UniProt O49687 (55-253, looked up): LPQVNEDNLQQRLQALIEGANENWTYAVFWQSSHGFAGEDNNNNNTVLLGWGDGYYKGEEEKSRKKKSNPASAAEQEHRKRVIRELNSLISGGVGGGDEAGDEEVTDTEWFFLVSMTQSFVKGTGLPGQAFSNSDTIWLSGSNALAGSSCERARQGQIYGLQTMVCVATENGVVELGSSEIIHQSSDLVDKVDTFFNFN

SMILES	target	assay	system	setting	Kd
CO[C@@H]1[C@@H](OC(N)=O)[C@@H](O)[C@H](Oc2ccc3c(O)c(NC(=O)c4ccc(O)c(CC=C(C)C)c4)c(=O)oc3c2C)OC1(C)C	Multidrug resistance operon repressor (mexR, Pseudomonas aeruginosa, UniProt P52003, E48A/Q49A)	–	–	–	1530 µM
CC[C@H](C)[C@H](NC(=O)c1ccc2c(c1)C(=O)OC21c2ccc(N(C)C)cc2Oc2cc(N(C)C)ccc21)C(=O)N[C@@H](CCCCN)C(=O)N[C@@H](CCC(=O)O)C(=O)N[C@@H](CC(=O)O)C(=O)N[C@@H](CO)C(=O)N[C@@H](Cc1ccccc1)C(=O)N[C@@H](CC(C)C)C(=O)N[C@@H](CCC(N)=O)C(=O)N[C@@H](CCCNC(=N)N)C(=O)N[C@@H](Cc1ccc(OP(=O)(O)O)cc1)C(=O)N[C@@H](CO)C(=O)N[C@@H](CO)C(=O)N[C@@H](CC(=O)O)C(=O)N1CCC[C@H]1C(=O)N[C@H](C(=O)NCC(=O)N[C@@H](C)C(=O)N[C@@H](CC(=O)O)C(=O)O)[C@@H](C)O	YES1 SH2 domain	binding	–	–	0.295 µM
NCCCC[C@H](N)C(=O)O	Uncharacterized protein (Pelagibacter ubique, UniProt Q4FM26)	isothermal titration calorimetry	Candidatus Pelagibacter ubique	–	0.284 µM and 0.106 µM
CC[C@H](C)[C@H](NC(=O)[C@H](Cc1ccc(OP(=O)(O)O)cc1)NC(=O)[C@H](CCC(=O)O)NC(=O)[C@@H]1CCCN1C(=O)[C@@H](NC(=O)[C@@H]1CCCN1C(=O)[C@H](CC(C)C)NC(=O)[C@H](Cc1ccccc1)NC(=O)[C@@H](NC(=O)[C@H](CC(=O)O)NC(=O)[C@H](CC(=O)O)NC(=O)c1ccc2c(c1)C(=O)OC21c2ccc(N(C)C)cc2Oc2cc(N(C)C)ccc21)[C@@H](C)O)C(C)C)C(=O)N[C@@H](CC(N)=O)C(=O)N[C@@H](CCC(N)=O)C(=O)N[C@@H](CO)C(=O)N[C@H](C(=O)N1CCC[C@H]1C(=O)N[C@@H](CCCCN)C(=O)N[C@@H](CC(=O)O)C(=O)O)C(C)C	Growth factor receptor-bound protein 2, SH2 domain (GRB2, Homo sapiens, UniProt P62993)	binding	–	–	0.198 µM
C[C@@H](O)[C@H](N)C(=O)NCC(=O)N[C@@H](CCC(N)=O)C(=O)N[C@@H](CC(N)=O)C(=O)N[C@@H](CC(N)=O)C(=O)N[C@@H](CC(N)=O)C(=O)N[C@@H](CO)C(=O)N[C@@H](CC(N)=O)C(=O)N[C@@H](Cc1ccccc1)C(=O)O	HLA class I histocompatibility antigen, A alpha chain, allele A*01:01 (Homo sapiens, UniProt P04439)	binding, fluorescence competition	–	2 days, HLA-A*0101, with: 6-FAM-labelled peptide tracer	3.59 µM
C[C@H](NC(=O)[C@H](CCCCN)NC(=O)[C@@H](N)Cc1ccccc1)C(=O)O	E3 ubiquitin-protein ligase PRT1 (PRT1, Arabidopsis thaliana, UniProt Q8LBL5)	ITC	–	pH 7.5, 25 °C	9.67 ± 1.56 µM
CSCC[C@H](NC(=O)[C@H](CC(C)C)NC(=O)[C@H](C)NC(=O)[C@H](CCCNC(=N)N)NC(=O)[C@H](Cc1ccc(OP(=O)(O)O)cc1)NC(=O)[C@H](Cc1ccccc1)NC(=O)[C@H](CC(N)=O)NC(=O)[C@H](CO)NC(=O)[C@H](CC(=O)O)NC(=O)[C@@H](NC(=O)[C@@H]1CCCN1C(=O)[C@H](CO)NC(=O)[C@@H]1CCCN1C(=O)[C@H](CC(C)C)NC(=O)c1ccc2c(c1)C(=O)OC21c2ccc(N(C)C)cc2Oc2cc(N(C)C)ccc21)[C@@H](C)O)C(=O)N[C@@H](CC(=O)O)C(=O)N[C@@H](CCC(=O)O)C(=O)N[C@@H](CCC(=O)O)C(=O)N[C@@H](CC(=O)O)C(=O)O	YES1 SH2 domain	binding	–	–	0.724 µM
NCCCC[C@H](NC(=O)[C@@H](N)Cc1ccc(O)cc1)C(=O)N[C@@H](Cc1ccccc1)C(=O)O	E3 ubiquitin-protein ligase PRT1 (PRT1, Arabidopsis thaliana, UniProt Q8LBL5, I333A)	binding, ITC	–	pH 7.5, 25 °C, full-length I333A mutant	13.7 ± 1.68 µM
CSCC[C@H](NC(=O)CNC(=O)[C@H](Cc1ccccc1)NC(=O)[C@H](CC(=O)O)NC(=O)CNC(=O)c1ccc2c(c1)C(=O)OC21c2ccc(N(C)C)cc2Oc2cc(N(C)C)ccc21)C(=O)N[C@@H](CO)C(=O)N[C@@H](CCCNC(=N)N)C(=O)N[C@@H](CC(=O)O)C(=O)N[C@H](C(=O)N[C@@H](Cc1ccc(OP(=O)(O)O)cc1)C(=O)N[C@@H](CO)C(=O)N[C@H](C(=O)N[C@@H](CC(=O)O)C(=O)N[C@@H](Cc1ccc(O)cc1)C(=O)N[C@@H](Cc1ccc(O)cc1)C(=O)N[C@@H](CCCNC(=N)N)C(=O)N[C@H](C(=O)N[C@@H](CC(=O)O)C(=O)O)C(C)C)[C@@H](C)O)C(C)C	Lymphocyte cytosolic protein 2, SH2 domain (Homo sapiens, UniProt Q13094)	binding	–	–	1.02 µM
CN[C@@H](Cc1c[nH]c2ccccc12)C(=O)O	N-methyl-L-tryptophan oxidase, oxidized (solA, Escherichia coli, UniProt P40874)	spectral titration	–	oxidised enzyme	973 ± 42 µM
CC[C@H](C)[C@H](NC(=O)[C@H](CCCCN)NC(=O)[C@H](CO)NC(=O)[C@@H](NC(=O)[C@]1(C)CCCC=CCCC[C@](C)(NC(=O)[C@H](CCCNC(=N)N)NC(=O)[C@H](Cc2ccccc2)NC(=O)[C@H](CO)NC(=O)[C@H](CCCNC(=N)N)NC(=O)[C@H](CCCNC(=N)N)NC(=O)[C@H](CCCNC(=N)N)NC(=O)[C@H](CC(=O)O)NC(=O)[C@H](CC(C)C)NC(=O)[C@H](Cc2ccccc2)NC(=O)[C@H](CCCCN)NC(=O)[C@H](CCC(N)=O)NC(=O)[C@H](Cc2ccccc2)NC(=O)c2ccc(-c3c4ccc(=[N+](C)C)cc-4oc4cc(N(C)C)ccc34)c(C(=O)[O-])c2)C(=O)N[C@@H]([C@@H](C)CC)C(=O)N[C@@H](CCC(N)=O)C(=O)NCC(=O)N1)[C@@H](C)CC)C(=O)N[C@@H](CC(=O)O)C(=O)N1CCC[C@H]1C(=O)N[C@@H](CCC(=O)O)C(=O)N[C@]1(C)CCCC=CCCC[C@@](C)(C(=O)N[C@@H](CC(C)C)C(=O)N[C@@H](CC(C)C)C(=O)N[C@@H](C)C(=O)N[C@@H](CO)C(=O)N[C@H](C(=O)O)[C@@H](C)O)NC(=O)[C@H](CCCCN)NC(=O)[C@H]([C@@H](C)CC)NC1=O	Transcription factor MYC4, residues 55-253 (MYC4, Arabidopsis thaliana, UniProt O49687)	fluorescence anisotropy	–	protein titration, with: TMR-labelled tracer	0.023 µM
CC[C@H](CO)Nc1nc(NCc2ccc(-c3ccccn3)cc2)c2ncn(C(C)C)c2n1	CSNK1D (Homo sapiens, UniProt P48730)	binding, competition affinity chromatography	SH-SY5Y cell extract	–	2.65 µM
CC(C)(O)C(O)C(=O)O (centres unmarked)	Dihydroxy-acid dehydratase, chloroplastic (DHAD, Arabidopsis thaliana, UniProt Q9LIR4)	binding, microscale thermophoresis	–	25 °C	3.46 µM
CC(=O)N[C@H]1[C@@H](O[C@H](C)[C@H](NC(=O)CNC(=O)[C@H](C)NC(=O)CNC(=O)[C@H](C)NC(=O)CNC(=O)[C@H](C)NC(=O)CNC(=O)[C@@H](NC(=O)[C@H](C)NC(=O)CN)[C@@H](C)O[C@H]2O[C@H](CO)[C@H](O)[C@H](O)[C@H]2NC(C)=O)C(=O)N[C@H](C(=O)N2CCC[C@H]2C(=O)NCC(=O)N2CCC[C@H]2C(=O)NCC(N)=O)[C@@H](C)O)O[C@H](CO)[C@H](O)[C@@H]1O	Polypeptide N-acetylgalactosaminyltransferase 4 (GALNT4, Homo sapiens, UniProt Q8N4A0, Q285A/T283S)	surface plasmon resonance	–	–	435 µM
CSCC[C@H](NC(=O)[C@H](CC(=O)O)NC(=O)c1ccc2c(c1)C(=O)OC21c2ccc(N(C)C)cc2Oc2cc(N(C)C)ccc21)C(=O)N[C@@H](CO)C(=O)N[C@@H](CCCCN)C(=O)N[C@@H](CC(=O)O)C(=O)N[C@@H](CCC(=O)O)C(=O)N[C@@H](CO)C(=O)N[C@H](C(=O)N[C@@H](CC(=O)O)C(=O)N[C@@H](Cc1ccc(OP(=O)(O)O)cc1)C(=O)N[C@H](C(=O)N1CCC[C@H]1C(=O)N[C@@H](CCSC)C(=O)N[C@@H](CC(C)C)C(=O)N[C@@H](CC(=O)O)C(=O)N[C@@H](CCSC)C(=O)N[C@@H](CCCCN)C(=O)N[C@@H](CC(=O)O)C(=O)O)C(C)C)C(C)C	Phosphatidylinositol 3-kinase regulatory subunit gamma, SH2 domain (Homo sapiens, UniProt Q92569)	binding	–	–	0.01 µM
CC(C)S[C@@H]1O[C@H](CO)[C@H](O)[C@H](O)[C@H]1O	lacI (Escherichia coli, UniProt P03023, D149C/N125C)	–	–	–	5.2 ± 0.2 µM
N[C@@H](CO)C(=O)O	spt (Sphingomonas paucimobilis, UniProt Q93UV0, R378K)	binding	–	–	1200 µM
CC[C@@H](C)[C@@H](NC(=O)[C@@H](Cc1ccc(O)cc1)NC(=O)[C@H]1CCCN1C(=O)[C@@H](CCCNC(=N)N)NC(=O)[C@H](N)Cc1c[nH]cn1)C(=O)N[C@H](C)C(=O)N[C@H](Cc1c[nH]cn1)C(=O)N[C@H](CCCNC(=N)N)C(=O)N[C@@H](C(=O)N[C@H](Cc1ccc(O)cc1)C(=O)N[C@H](CO)C(=O)N[C@H](Cc1ccccc1)C(N)=O)C(C)C	Cd274 (Mus musculus, UniProt Q9EP73)	microscale thermophoresis	–	2 h, His-tagged protein	6.4 ± 1.2 µM
CC[C@H](C)[C@H](NC(=O)[C@H](CC(=O)O)NC(=O)[C@H](C)NC(=O)[C@H](Cc1ccc(OP(=O)(O)O)cc1)NC(=O)[C@H](CCCCN)NC(=O)[C@@H](NC(=O)[C@H](CC(=O)O)NC(=O)CNC(=O)[C@H](CCCCN)NC(=O)[C@H](CCSC)NC(=O)[C@H](CC(=O)O)NC(=O)[C@H](CC(C)C)NC(=O)[C@H](CCSC)NC(=O)c1ccc2c(c1)C(=O)OC21c2ccc(N(C)C)cc2Oc2cc(N(C)C)ccc21)C(C)C)C(=O)N[C@@H](CCC(=O)O)C(=O)N[C@@H](CO)C(=O)N[C@@H](CO)C(=O)N[C@@H](CC(N)=O)C(=O)N[C@@H](CC(=O)O)C(=O)O	1-phosphatidylinositol 4,5-bisphosphate phosphodiesterase gamma-2, SH2 domain (PLCG2, Homo sapiens, UniProt P16885)	binding	–	–	0.557 µM
CC[C@H](C)[C@H](NC(=O)[C@H](CCC(N)=O)NC(=O)[C@@H](NC(=O)[C@@H]1CCCN1C(=O)[C@@H](NC(=O)[C@H](CO)NC(=O)[C@H](Cc1ccccc1)NC(=O)[C@@H]1CCCN1C(=O)[C@H](CCC(N)=O)NC(=O)[C@@H](N)CCSC)[C@@H](C)CC)C(C)C)C(=O)N[C@H](C(=O)N[C@@H](CC(C)C)C(=O)N[C@@H](CCC(N)=O)C(=O)NCC(=O)N[C@@H](CO)C(=O)N[C@@H](CCCNC(=N)N)C(=O)N[C@@H](CCCNC(=N)N)C(=O)N[C@@H](CCCNC(=N)N)C(=O)N[C@@H](CCC(N)=O)C(=O)NCC(=O)N[C@@H](CCCNC(=N)N)C(N)=O)[C@@H](C)O	Kcnma1 (Mus musculus, UniProt Q08460)	ion current, blocker, inside-out patch clamp	Xenopus oocytes	+80 mV, with: 10 µM cytosolic Ca2+	0.4 µM

For quick reference, copied from above:
SMILES	target	assay	system	setting	Kd
CC[C@H](C)[C@H](NC(=O)[C@H](CC(=O)O)NC(=O)[C@H](C)NC(=O)[C@H](Cc1ccc(OP(=O)(O)O)cc1)NC(=O)[C@H](CCCCN)NC(=O)[C@@H](NC(=O)[C@H](CC(=O)O)NC(=O)CNC(=O)[C@H](CCCCN)NC(=O)[C@H](CCSC)NC(=O)[C@H](CC(=O)O)NC(=O)[C@H](CC(C)C)NC(=O)[C@H](CCSC)NC(=O)c1ccc2c(c1)C(=O)OC21c2ccc(N(C)C)cc2Oc2cc(N(C)C)ccc21)C(C)C)C(=O)N[C@@H](CCC(=O)O)C(=O)N[C@@H](CO)C(=O)N[C@@H](CO)C(=O)N[C@@H](CC(N)=O)C(=O)N[C@@H](CC(=O)O)C(=O)O	1-phosphatidylinositol 4,5-bisphosphate phosphodiesterase gamma-2, SH2 domain (PLCG2, Homo sapiens, UniProt P16885)	binding	–	–	0.557 µM
CC[C@H](C)[C@H](NC(=O)[C@H](CCC(N)=O)NC(=O)[C@@H](NC(=O)[C@@H]1CCCN1C(=O)[C@@H](NC(=O)[C@H](CO)NC(=O)[C@H](Cc1ccccc1)NC(=O)[C@@H]1CCCN1C(=O)[C@H](CCC(N)=O)NC(=O)[C@@H](N)CCSC)[C@@H](C)CC)C(C)C)C(=O)N[C@H](C(=O)N[C@@H](CC(C)C)C(=O)N[C@@H](CCC(N)=O)C(=O)NCC(=O)N[C@@H](CO)C(=O)N[C@@H](CCCNC(=N)N)C(=O)N[C@@H](CCCNC(=N)N)C(=O)N[C@@H](CCCNC(=N)N)C(=O)N[C@@H](CCC(N)=O)C(=O)NCC(=O)N[C@@H](CCCNC(=N)N)C(N)=O)[C@@H](C)O	Kcnma1 (Mus musculus, UniProt Q08460)	ion current, blocker, inside-out patch clamp	Xenopus oocytes	+80 mV, with: 10 µM cytosolic Ca2+	0.4 µM
